Results of several laboratories.
Every numbered part comes from another study and shows a few of its results, in no order.

Study 1 — technique: RNA Bind-n-Seq; molecule type: RNA; sample: in vitro; concentration: 365 nM; baseline: no-protein control; reading: higher = stronger binding; quantity: RBNS enrichment (R)
Target: RNA binding protein fox-1 homolog 2, RRM domain, GST-SBP tag (RBFOX2, Homo sapiens, UniProt O43251-10, residues 100-194)
Notes: natural RNA segment, single round, ends assumed
All sequences stand within: GGGAGUUCUACAGUCCGACGAUC … UGGAAUUCUCGGGUGCCAA
Residues (chain): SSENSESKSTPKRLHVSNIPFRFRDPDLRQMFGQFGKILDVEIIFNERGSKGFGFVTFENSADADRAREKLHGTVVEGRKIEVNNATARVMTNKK
CUGCUCUUAUCACCUAAACAGGACAGGAGAGCAGAUGCCCCAGCGCCUCUAGUAGAUGGUAGUGGUGGGGCUAGUGUGUGGCUGUUACCUGGGCCGCUCAAAUUCAUUCC: 0.224
UCAUGUGUAACGUGGGUCUGUUUAGCUGAGAUAGACUAGAGGAGGACACUAGAGAUGCCCAUUCCUACUCCCUCCCUUUGGUCACUAGCCACCAUUAUGGUUCCACUGGC: 0.353
GUGUCAGGCCGGCUUGGACAAUGAAACCCUGACCUUGCUGCAUUCCUUUUGCUUCCACCACCACUAGCUUCUUUGGAAUCUUGGGGUGGGGGUCAUCUUUGGGGAUUAUG: 0.208
UUGUGGAAAAUGAAAAUUAGGAUUUCAUGAUUUUUUUUUUUCAGUCCCCGUGAAGGAGAGCCCUUCAUUUGGAGAUUAUGUUCUUUCGGGGAGAGGCUGAGGACUUAAAA: 0.325
CUGUCAUUUGCCUCCGCAACAAAGCGAGUGUAAGUGUCUAAUGCUGAAGCUAGAGUGAACUCAUGUGCCAGCAGAGGCCUCCUCUCUUUAUAGCAAUUCUGACAAUAGGU: 0.259
GGUGUCUGUGUUUCUGUUUGCACUGUUUCUGUGACAGCCACCCAGGCAAAAUCAUGAAAUACACUCGGUUCUGUAAAUUGCUUCUUUAAAUGUCCCGUAGAUUCUUCCUG: 0.356
AUUACAACAAAUGGGAGGUUCUGACAUCCUAGACCAUCUCACUGAUGCGCCACCAGGAAUCCAGUCUUGUCAUUACAUAAAUAAUCUAAAUGACACUCAGAGAGGGACAG: 0.251
AGGAUUGGUACUCAUUAAUUAUGUCUUGCAAAUAUUUUCUAAAAAUUCAACCACUCUCCUAAAAUGGUGUUUAAAUAUUUUGUAGGGCAGAAUAUGCAUAUUGCCUGUUA: 3.69
GGUCUUGGAAGGGUGGUCUUUAUACAGGUUUUACUGUAAUGGUAAGGAUCGACUCGAGACAGUAUUAGUAAAUAUAUUUUGUAUGGAUCAAAACAGUGAGCACCGUAUGA: 0.367
AAAAAUACUGUGGACACUUAAAUAAUGGGCUAGUUUCUUACAAUGAAAUGUUCUCUAGGAUUCUAAAAUAGGCAGGUACUUUACUAUGUUACUGUACCCUGCAGUGUUGA: 0.381
CCCUGAGUGGCAGUGUUCCCUCAUCCACCCUGUUGCCCCUUAGCUAGAAGCUGUAAUGGAUGCUCUUUUCCUCCGAUUAUGUAGAAAUGUGCAUUCAAAAGGAAUAGAAC: 0.293
UGUGUAAAAUCUCCAAAUGGAUGUUACAGCUUUCAGCUUGAACGUUUGUUUCCAGACCUGAUUAAAAUUUGGUUUAUUCUAAUUUCUGUACUAUAUCAUCUGAGGUUUUA: 0.372

Study 2 — technique: aptamer microarray, sandwich; molecule type: DNA with 2'F-ANA; sample: in vitro; concentration: 200 nM; together with: Cy3 exosite-II aptamer, 400 nM; reading: higher = stronger binding; quantity: mean fluorescence intensity; strand: GGTTGGTGTGGTTGG
Target: Prothrombin, mature alpha-thrombin (F2, Homo sapiens, UniProt P00734)
Notes: whole 15-mer aptamer, many near background
2'F-ANA at 1 3 4 5 6 9 10 12 14: 44.7 a.u.
2'F-ANA at 4 5 11 12 14: 43.2 a.u.
2'F-ANA at 3 4 5 8 12 13: 133 a.u.
2'F-ANA at 1 4 5 6 8 9 10 11 13 14 15: 50 a.u.
2'F-ANA at 1 3 5 6 7 11 12: 97 a.u.
2'F-ANA at 2 6 7 8 9: 365 a.u.
2'F-ANA at 1 5 7 9 12 14: 42.7 a.u.
2'F-ANA at 2 3 7 8 10 11 13: 380 a.u.
2'F-ANA at 1 3 5 6 8 9 10 13 15: 74.7 a.u.
2'F-ANA at 1 2 3 4 6 9 10 12 13 15: 64 a.u.
2'F-ANA at 1 3 7 9 12 13 14 15: 110 a.u.
2'F-ANA at 2 3 7 9 10 13 15: 365 a.u.
2'F-ANA at 3 4 5 7 10 11 12 14: 48.4 a.u.
2'F-ANA at 5 6 7 8 9 10 12 14: 46.2 a.u.
2'F-ANA at 1 3 4 6 7 8 12 14: 99.3 a.u.
2'F-ANA at 1 5 7 11 15: 50.2 a.u.
2'F-ANA at 6 8 10 11 13 15: 129 a.u.
2'F-ANA at 3 4 7 10 11 12 13 14 15: 204 a.u.
2'F-ANA at 2 4 5 6 8 10 12 13: 56.6 a.u.
2'F-ANA at 1 4 5 6 12 13 14 15: 65.7 a.u.
2'F-ANA at 5 6 7 8 10 11: 48.1 a.u.

Study 3 — technique: protein-binding microarray; molecule type: double-stranded DNA, one strand shown; sample: in vitro; concentration: 940 nM top; notes: 60-bp whole probe; together with: salmon DNA 0.4 mg/ml; baseline: random background probes; reading: higher = stronger binding; quantity: fitted relative affinity; all sequences stand within: GCCTAGCAC … GTCTTGATTCGCTTGACGCTGCTG
Target: Interferon regulatory factor 5, full length, phosphomimetic (IRF5, Homo sapiens, UniProt Q13568-2, residues 1-514, S451D/S453D/S456D/S462D)
TTAGGTTTCCGGACTGGGTTAGTGCTA: 0.718 z-score
GACGATCTCGGGTATCGAGACGTGCTA: 1.35 z-score
TTAGATACCGGGACTGGATTAGTGCTA: -0.201 z-score
TTAGGTGTCGGGTATCGGTTAGTGCTA: 3.02 z-score
GCCACTTTCCATTTCTGTTTGTGCTAG: 2.04 z-score
GTCGATCTCAGTATCGAGACGTGCTAG: 3.53 z-score
TCAAAAGTGTTTCTCAAACTGTGCTAG: -0.271 z-score
TTAGATCTCAGTAGCGATTAGTGCTAG: 0.323 z-score
TGAGAACTGAGACTGGATTAGTGCTAG: -0.163 z-score
TTAGCACTGGACTTTCGGTTAGTGCTA: 2.58 z-score
GACTGACTGGGGTATCGGGACGTGCTA: 0.58 z-score
GACGATTTCAGTACCGAGACGTGCTAG: 0.177 z-score
CAGTAGATGGCGCCTGAGAGGTGCTAG: -0.437 z-score
TTAGGACTGGGTCTCGTTTAGTGCTAG: 0.42 z-score
GACGGAATGGACACTGGGGACGTGCTA: -0.413 z-score
CATTTTAGTAGTTTCTAAAAGTGCTAG: 0.708 z-score
GACGGTTTGGGGTTTCGGGACGTGCTA: 2.39 z-score
GACGGTACCGGACTGGGGACGTGCTAG: -0.35 z-score
TCAGGTTTCACTTTCCAACTGTGCTAG: 7.82 z-score
TCAAGTTTTTATTTTCTACTGTGCTAG: 1.32 z-score
CACGAACTGGGGTTTCGAGACGTGCTA: 1.77 z-score
GAATTTCCCACTTTCAGTTCGTGCTAG: 2.84 z-score
TTAGATATCGGGACTGTATTAGTGCTA: 0.196 z-score
GACTGTTCCGGTTTCGGGACGTGCTAG: 4.28 z-score
TTAGGACTTGACTTTCGGTTAGTGCTA: 3.06 z-score

Study 4 — technique: protein binding microarray; molecule type: double-stranded DNA, one strand shown; sample: in vitro; concentration: not given; baseline: not given; reading: higher = stronger binding; quantity: E-score
Target: Histone acetyltransferase KAT6A, both winged helices, GST fusion (KAT6A, Homo sapiens, UniProt Q92794, residues 1-181)
Notes: 8-mer, flanks averaged, mean of 2 arrays, mostly near background
Target sequence (chain): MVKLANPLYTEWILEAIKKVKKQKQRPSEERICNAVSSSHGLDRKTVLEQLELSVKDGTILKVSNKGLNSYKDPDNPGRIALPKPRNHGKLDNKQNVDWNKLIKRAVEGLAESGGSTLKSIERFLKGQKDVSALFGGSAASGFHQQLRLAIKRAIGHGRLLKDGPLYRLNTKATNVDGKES
CTGCAGCC: -0.049
AAGGCGAA: 0.0323
AAAGGAGC: 0.0254
CAAAAAAG: -0.0454
TTAGAGAA: -0.175
ATCTACAG: 0.0204
TAAATGCA: -0.183
ATGAGTGC: 0.0341
GCACGATA: 0.0403
GACGCTTA: 0.109
GGTCCACC: -0.123
ACTATATC: -0.077
GGCCCGGA: 0.0936
ATGAACTA: -0.124
GGAGGCAC: -0.00237
GCATCGGA: 0.0992
ACTCTTAG: -0.175
ACTAATCC: 0.0424
GTTGCTTA: -0.0294
CATAAGCA: -0.068
AATTTCTC: -0.00613
CCTTGATA: -0.122
CCACTGCA: -0.0802
CAGGACGC: 0.111
AGATTCCG: 0.173

Study 5 — technique: competition protein-binding microarray; molecule type: double-stranded DNA, one strand shown; sample: in vitro; concentration: 2 µM; together with: Pho4 competitor, 0.05 µM; reading: higher = stronger binding; quantity: fluorescence intensity; all sequences stand within: … GTCTTGATTCGCTTGACGCTGCTG
Target: Centromere-binding protein 1, full length, His-tagged (CBF1, Saccharomyces cerevisiae, UniProt P17106, residues 1-351)
Sequence of UniProt P17106 (whole entry, looked up): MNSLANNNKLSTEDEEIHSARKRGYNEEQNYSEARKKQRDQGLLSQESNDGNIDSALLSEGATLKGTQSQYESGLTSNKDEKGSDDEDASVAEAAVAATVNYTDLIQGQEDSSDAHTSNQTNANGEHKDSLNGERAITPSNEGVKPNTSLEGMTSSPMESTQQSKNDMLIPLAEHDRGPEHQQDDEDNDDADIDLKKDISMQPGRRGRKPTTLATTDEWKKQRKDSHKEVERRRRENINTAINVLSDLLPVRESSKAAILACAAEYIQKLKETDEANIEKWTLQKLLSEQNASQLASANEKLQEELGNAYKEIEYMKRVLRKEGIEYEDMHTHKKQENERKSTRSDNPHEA
Notes: whole 60-bp probe, lowest competitor level
CCCATTCAATTCGCTCTCGTGACGGAATCGTCGGGA: 336 a.u.
GCCCCAGGTTAGGACCACGTGGGTAAGAAGATTTCC: 933 a.u.
AAGTACAAGTGAGGGATCGTGATTGTAGAGCACTCT: 74.9 a.u.
CCTGGTAGGTTTGATCTCTTGAGAGTTTGAGCTTTC: 52.1 a.u.
CTAGGCGGGATCTGGCCCGTGGAACTCGTATGGAAT: 57 a.u.
GGCCAAACAACCAGGGTCGTGCCAGTATTTGGCGCC: 55.2 a.u.
CGTCCTAGTGATTGCGGCGTGGGTGCCATGAGGAAG: 81.7 a.u.
GTCTTGTCTCATTGTCACAGCACTTTCCCCACTTCA: 91 a.u.
GATGGAATTACCCATCACGCTCCTCTCTTATGACTA: 183 a.u.
CGTCCTAGTGATTGCCAGGTGGGTGCCATGAGGAAG: 71.3 a.u.
GTCAATACTCTAATAGCTGTGATGAAAATCATAATA: 88.6 a.u.
GTCTTGTCTCATTGTCACGATACTTTCCCCACTTCA: 232 a.u.
CTAACGAAGGTTTGGACTGTGGGTGACAAGCCAAGT: 62.6 a.u.
CGTCCTAGTGATTTTCACGTGCAGTCCATGAGGAAG: 1140 a.u.
TGCACGGAGTCTTAAAACACTCCGATTTGGATACCT: 86 a.u.
TGGTCGAGCTTTTTTCACATGCGGTGGGGAAGGCGG: 73.7 a.u.
TATTCATTGCAGTTACACGTGAAGGCTAAACTTTAT: 895 a.u.
CTGTGAGACCAGTTAAAGACCTCTCTCAAGAAAAAT: 66.8 a.u.
CTAACGAAGGTTTTTCACGTGGGATACAAGCCAAGT: 606 a.u.
TGCGCAACAACTTCGCACGTGTTTTTATGTCTAGAA: 1750 a.u.
GTCTTGTCTCATTGGGATGTGGGTGTCCCCACTTCA: 92.2 a.u.
CTTCTGTAAATTTTTCACGTGACTTGACGCGCCCCG: 6040 a.u.
CTAACGAAGGTTTGTGTGGTGGGTGACAAGCCAAGT: 75.5 a.u.
CCAATCACCGTTCCACGCGTGCAAATCTCTATGACA: 97.3 a.u.
CTTCTGTAAATTTTTCACGTGATATGACGCGCCCCG: 3470 a.u.

Excerpt of the above (study 5):
GATGGAATTACCCATCACGCTCCTCTCTTATGACTA: 183 a.u.
CGTCCTAGTGATTGCCAGGTGGGTGCCATGAGGAAG: 71.3 a.u.
GTCAATACTCTAATAGCTGTGATGAAAATCATAATA: 88.6 a.u.
GTCTTGTCTCATTGTCACGATACTTTCCCCACTTCA: 232 a.u.
CTAACGAAGGTTTGGACTGTGGGTGACAAGCCAAGT: 62.6 a.u.
CGTCCTAGTGATTTTCACGTGCAGTCCATGAGGAAG: 1140 a.u.
